Experimental data gathered from unrelated publications.
A part holds a random share of what one study measured. Changes are numbered by the printed parent chain.

Block 1 — target: CCND2, cyclin fold, Cln2 fusion (human); technique: yeast growth competition, sequencing; sample: yeast; setting: weak parent motif; reference: not given; direction: higher = stronger binding
Starting sequence: MICAL3 docking peptide (human); LQLRRQLSFSEDS
Variant	normalised enrichment score
LQLRFQLSFSEDS [R5F]	-0.222
LQLRRFLSFSEDS [Q6F]	-0.726
LQLLRQLSFSEDS [R4L]	-0.0841
LQLRRQLQFSEDS [S8Q]	0.276
LQLRPQLSFSEDS [R5P]	0.123
LQLRRQLWFSEDS [S8W]	0.0463

Block 2 — technique: aptamer microarray, sandwich; form: DNA with 2'F-ANA; sample: in vitro; concentration: 200 nM; with: Cy3 exosite-II aptamer, 400 nM; direction: higher = stronger binding; sequence: GGTTGGTGTGGTTGG
Target: Prothrombin, mature alpha-thrombin (F2, Homo sapiens, UniProt P00734)
Setting: whole 15-mer aptamer, many near background
Modification	mean fluorescence intensity [a.u.]
2'F-ANA at 2 3 4 8 10 12	415
2'F-ANA at 1 3 4 5 6 7 10 11 13 15	44.7
2'F-ANA at 1 2 4 5 7 8 10 13 14 15	101
2'F-ANA at 1 2 3 4 7 10 11 14	49
2'F-ANA at 3 5 7 9 10 14 15	62.7
2'F-ANA at 2 4 6 7 9 10 12 13 15	80.6
2'F-ANA at 5 6 7 9 11 12 14 15	73.3

Block 3 — technique: protein-binding microarray; form: double-stranded DNA, one strand shown; sample: in vitro; concentration: 2200 nM top; setting: 60-bp whole probe; with: salmon DNA 0.4 mg/ml; reference: random background probes; direction: higher = stronger binding; shared flanks, not repeated: GCCTAGCAC … GTCTTGATTCGCTTGACGCTGCTG
Target: Interferon regulatory factor 7, full length, phosphomimetic (IRF7, Homo sapiens, UniProt Q92985, residues 1-503, S471D/S472D/S475D/S476D/S477D/S483D/S484D/S487D)
UniProt Q92985, sequence (whole entry, unmodified, looked up): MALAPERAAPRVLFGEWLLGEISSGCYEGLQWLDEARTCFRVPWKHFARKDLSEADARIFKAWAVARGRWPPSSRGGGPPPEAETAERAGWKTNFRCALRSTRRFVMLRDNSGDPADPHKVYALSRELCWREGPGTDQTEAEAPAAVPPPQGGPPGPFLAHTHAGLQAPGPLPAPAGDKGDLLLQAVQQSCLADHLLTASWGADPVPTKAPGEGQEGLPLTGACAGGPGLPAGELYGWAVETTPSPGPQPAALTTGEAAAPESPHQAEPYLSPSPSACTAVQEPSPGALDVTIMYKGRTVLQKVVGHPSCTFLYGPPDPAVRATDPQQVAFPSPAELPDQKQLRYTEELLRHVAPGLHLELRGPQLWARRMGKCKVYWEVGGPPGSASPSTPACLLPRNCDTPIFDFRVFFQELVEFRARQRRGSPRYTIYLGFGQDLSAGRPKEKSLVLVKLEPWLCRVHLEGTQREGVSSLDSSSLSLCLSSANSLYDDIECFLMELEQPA
Sequence	fitted relative affinity [z-score]
TTAGATATCAGATTGGATTAGTGCTAG	-0.293
GACGGTCTGGGTATCGGGACGTGCTAG	-0.545
GACGGACAGGACACTGGGGACGTGCTA	-1.16
TATGTTTTTCATTTTGTTCAGTGCTAG	3.69
TTAGATTTCGGGTACCGATTAGTGCTA	2.42
GACGGTTTCGACTATCGGGTCGTGCTA	3.7
ATGGCTTTGCAGATAAATATGTGCTAG	-0.231
TTAGGTTTCGACCATCGGTTAGTGCTA	1.93

Mixed results
Molecule	target	test	system	conditions	scale	endpoint	result
PhoQ, residues 284 288 289 292 302 303 SLCLSL	PhoP, residues 12 14 15 18 19 SEGLL (Escherichia coli, UniProt P23836)	Sort-seq, measured: YFP reporter	E. coli	PhoQ-PhoP variant library, with: 10 µM Mg2+	reference: high Mg2+ state, higher = stronger signaling	fold induction	2.41

Repeated from above (block 1):
Variant	normalised enrichment score
LQLRRQLWFSEDS [S8W]	0.0463
